Assay results from different studies.
Several values in a cell are separate wells, animals, samples, runs or records. ± gives the spread as reported.
OPRK1: Kappa-type opioid receptor (OPRK1, Homo sapiens, UniProt P41145)
Butyrylcholinesterase: Butyrylcholinesterase (Sus scrofa, UniProt A0A4X1VEU5)
inhA: Enoyl-[acyl-carrier-protein] reductase [NADH] (inhA, Mycobacterium tuberculosis, UniProt P9WGR1)
ACHE: Acetylcholinesterase (ACHE, Homo sapiens, UniProt P22303)
OPRL1: Nociceptin receptor (OPRL1, Homo sapiens, UniProt P41146)
Oprk1: Kappa-type opioid receptor (Oprk1, Mus musculus, UniProt P33534)
Neuronal acetylcholine receptor; alpha3/beta2: Neuronal acetylcholine receptor; alpha3/beta2 (Rattus norvegicus, UniProt P04757+P12390)

The chains behind the UniProt entries cited, without tags or fusion partners. A line that says so, or that is headed by a name, gives the form on record, which may keep a tag or linker. Residues count along the entry.
UniProt P41145, whole entry: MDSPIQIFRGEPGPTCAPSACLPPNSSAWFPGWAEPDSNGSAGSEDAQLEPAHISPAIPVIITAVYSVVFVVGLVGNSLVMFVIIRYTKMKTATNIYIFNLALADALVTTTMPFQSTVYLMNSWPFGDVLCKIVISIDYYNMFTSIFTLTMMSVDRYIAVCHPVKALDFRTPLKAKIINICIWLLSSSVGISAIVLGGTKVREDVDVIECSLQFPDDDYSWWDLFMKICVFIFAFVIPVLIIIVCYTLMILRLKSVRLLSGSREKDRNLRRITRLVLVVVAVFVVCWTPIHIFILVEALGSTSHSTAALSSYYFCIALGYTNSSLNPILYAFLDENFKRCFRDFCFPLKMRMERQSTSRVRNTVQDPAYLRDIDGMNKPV
UniProt P9WGR1, whole entry: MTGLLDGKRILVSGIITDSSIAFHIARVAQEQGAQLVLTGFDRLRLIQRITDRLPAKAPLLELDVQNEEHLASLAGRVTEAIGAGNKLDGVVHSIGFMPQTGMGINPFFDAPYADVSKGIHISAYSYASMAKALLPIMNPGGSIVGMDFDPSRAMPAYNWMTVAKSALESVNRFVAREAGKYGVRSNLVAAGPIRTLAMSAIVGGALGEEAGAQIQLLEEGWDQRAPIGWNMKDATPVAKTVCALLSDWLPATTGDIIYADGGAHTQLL
UniProt P41146, whole entry: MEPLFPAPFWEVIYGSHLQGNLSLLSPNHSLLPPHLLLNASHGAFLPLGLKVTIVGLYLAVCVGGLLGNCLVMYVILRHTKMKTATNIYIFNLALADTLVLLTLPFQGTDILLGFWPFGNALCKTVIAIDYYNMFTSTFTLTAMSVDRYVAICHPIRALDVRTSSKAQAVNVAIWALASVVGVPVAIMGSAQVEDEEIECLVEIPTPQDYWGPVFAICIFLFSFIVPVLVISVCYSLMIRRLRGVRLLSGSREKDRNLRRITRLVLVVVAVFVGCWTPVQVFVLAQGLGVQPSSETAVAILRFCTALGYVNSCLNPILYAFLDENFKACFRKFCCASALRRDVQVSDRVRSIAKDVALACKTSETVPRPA
UniProt P04757, 26-499 limits assumed: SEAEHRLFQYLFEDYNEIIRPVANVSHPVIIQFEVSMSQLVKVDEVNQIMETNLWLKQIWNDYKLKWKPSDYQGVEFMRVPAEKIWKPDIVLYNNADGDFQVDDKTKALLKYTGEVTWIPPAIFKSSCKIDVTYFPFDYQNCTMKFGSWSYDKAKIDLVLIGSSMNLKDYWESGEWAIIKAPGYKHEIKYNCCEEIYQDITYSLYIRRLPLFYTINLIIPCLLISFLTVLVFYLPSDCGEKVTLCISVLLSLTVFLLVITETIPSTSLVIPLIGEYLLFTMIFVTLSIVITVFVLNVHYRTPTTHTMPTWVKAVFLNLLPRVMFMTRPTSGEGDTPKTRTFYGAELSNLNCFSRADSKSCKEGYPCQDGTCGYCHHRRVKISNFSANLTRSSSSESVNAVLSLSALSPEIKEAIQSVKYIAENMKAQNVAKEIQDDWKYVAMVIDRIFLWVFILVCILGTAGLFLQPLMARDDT
UniProt P04757, whole entry, looked up: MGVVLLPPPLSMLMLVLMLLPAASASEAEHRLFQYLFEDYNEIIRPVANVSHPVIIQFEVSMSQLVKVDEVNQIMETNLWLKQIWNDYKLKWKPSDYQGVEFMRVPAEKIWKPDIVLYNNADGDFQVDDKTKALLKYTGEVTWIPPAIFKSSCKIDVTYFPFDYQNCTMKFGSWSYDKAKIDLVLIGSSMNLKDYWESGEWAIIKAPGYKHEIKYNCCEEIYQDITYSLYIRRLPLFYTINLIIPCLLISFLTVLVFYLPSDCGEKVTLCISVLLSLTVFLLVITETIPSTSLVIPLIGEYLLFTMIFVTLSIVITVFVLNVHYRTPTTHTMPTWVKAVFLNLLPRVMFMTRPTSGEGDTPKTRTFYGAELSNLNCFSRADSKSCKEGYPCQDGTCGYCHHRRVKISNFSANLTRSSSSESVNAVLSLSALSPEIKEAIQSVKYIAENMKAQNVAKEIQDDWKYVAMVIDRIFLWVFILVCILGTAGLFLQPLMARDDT
UniProt P12390, 25-500 limits assumed: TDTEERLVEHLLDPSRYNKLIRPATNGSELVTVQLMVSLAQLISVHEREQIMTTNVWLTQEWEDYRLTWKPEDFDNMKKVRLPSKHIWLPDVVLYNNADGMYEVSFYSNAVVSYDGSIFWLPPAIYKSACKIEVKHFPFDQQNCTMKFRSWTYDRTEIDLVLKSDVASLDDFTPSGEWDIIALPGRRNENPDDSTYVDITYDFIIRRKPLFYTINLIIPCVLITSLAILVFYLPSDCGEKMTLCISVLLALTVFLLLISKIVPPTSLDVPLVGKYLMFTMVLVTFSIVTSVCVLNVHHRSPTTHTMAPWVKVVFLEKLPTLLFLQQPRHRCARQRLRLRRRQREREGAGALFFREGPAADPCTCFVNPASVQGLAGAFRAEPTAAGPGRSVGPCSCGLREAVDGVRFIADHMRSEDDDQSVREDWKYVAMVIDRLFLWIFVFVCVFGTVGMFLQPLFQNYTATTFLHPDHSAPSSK
UniProt P33535, whole entry: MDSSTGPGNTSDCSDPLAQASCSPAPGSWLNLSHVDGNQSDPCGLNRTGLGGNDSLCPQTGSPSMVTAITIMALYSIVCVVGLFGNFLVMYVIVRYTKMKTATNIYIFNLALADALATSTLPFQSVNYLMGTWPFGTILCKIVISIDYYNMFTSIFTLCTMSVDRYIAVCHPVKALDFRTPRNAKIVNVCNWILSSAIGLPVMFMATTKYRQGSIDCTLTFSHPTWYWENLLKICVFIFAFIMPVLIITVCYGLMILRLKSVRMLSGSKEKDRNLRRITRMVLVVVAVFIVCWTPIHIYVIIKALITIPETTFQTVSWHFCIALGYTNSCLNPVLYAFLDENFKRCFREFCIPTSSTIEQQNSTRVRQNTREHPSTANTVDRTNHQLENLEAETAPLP
UniProt P37231, 176-477 with tags or gaps isoform 2 limits assumed: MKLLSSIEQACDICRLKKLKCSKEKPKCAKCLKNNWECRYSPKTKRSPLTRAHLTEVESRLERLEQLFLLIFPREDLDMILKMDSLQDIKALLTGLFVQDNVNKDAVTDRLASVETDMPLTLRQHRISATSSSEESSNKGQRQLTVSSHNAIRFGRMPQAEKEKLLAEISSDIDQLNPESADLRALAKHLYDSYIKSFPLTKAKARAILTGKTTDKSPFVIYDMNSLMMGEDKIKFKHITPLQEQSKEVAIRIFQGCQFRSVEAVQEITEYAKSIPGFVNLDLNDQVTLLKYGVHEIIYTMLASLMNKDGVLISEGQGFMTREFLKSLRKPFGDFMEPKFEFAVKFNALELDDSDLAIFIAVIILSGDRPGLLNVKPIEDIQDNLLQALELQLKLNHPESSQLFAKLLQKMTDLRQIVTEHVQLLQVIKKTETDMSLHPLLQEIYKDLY
UniProt Q869C3, whole entry, looked up: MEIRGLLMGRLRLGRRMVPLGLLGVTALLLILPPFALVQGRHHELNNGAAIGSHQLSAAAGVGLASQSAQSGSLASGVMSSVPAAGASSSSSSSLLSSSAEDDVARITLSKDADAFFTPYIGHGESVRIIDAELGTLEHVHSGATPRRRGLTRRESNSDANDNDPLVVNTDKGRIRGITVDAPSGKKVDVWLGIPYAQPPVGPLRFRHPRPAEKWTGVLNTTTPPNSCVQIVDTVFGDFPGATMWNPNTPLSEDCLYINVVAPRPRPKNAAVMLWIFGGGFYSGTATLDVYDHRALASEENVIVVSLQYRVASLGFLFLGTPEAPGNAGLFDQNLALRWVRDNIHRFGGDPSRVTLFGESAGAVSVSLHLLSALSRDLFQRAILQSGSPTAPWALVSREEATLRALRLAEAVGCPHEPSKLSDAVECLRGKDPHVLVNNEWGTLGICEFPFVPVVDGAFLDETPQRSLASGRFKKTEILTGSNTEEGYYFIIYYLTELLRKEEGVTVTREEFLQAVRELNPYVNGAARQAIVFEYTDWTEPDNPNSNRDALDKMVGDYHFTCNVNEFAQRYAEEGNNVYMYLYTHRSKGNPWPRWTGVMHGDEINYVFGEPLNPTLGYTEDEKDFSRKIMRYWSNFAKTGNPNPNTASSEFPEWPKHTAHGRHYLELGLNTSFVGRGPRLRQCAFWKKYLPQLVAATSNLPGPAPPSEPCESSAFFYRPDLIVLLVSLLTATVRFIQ
UniProt P21917, whole entry: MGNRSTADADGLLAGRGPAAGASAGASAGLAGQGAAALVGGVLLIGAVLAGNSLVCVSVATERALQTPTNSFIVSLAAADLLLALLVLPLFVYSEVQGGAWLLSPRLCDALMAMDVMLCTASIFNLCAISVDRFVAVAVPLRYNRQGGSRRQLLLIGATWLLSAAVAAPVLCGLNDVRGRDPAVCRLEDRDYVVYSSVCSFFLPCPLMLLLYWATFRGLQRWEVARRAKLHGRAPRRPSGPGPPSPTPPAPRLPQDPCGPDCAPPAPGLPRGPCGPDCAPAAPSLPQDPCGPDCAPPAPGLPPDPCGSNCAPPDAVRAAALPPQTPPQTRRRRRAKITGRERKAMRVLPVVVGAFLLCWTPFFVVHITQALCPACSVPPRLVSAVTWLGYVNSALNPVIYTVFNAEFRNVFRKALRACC
UniProt P17405, 47-631 limits assumed: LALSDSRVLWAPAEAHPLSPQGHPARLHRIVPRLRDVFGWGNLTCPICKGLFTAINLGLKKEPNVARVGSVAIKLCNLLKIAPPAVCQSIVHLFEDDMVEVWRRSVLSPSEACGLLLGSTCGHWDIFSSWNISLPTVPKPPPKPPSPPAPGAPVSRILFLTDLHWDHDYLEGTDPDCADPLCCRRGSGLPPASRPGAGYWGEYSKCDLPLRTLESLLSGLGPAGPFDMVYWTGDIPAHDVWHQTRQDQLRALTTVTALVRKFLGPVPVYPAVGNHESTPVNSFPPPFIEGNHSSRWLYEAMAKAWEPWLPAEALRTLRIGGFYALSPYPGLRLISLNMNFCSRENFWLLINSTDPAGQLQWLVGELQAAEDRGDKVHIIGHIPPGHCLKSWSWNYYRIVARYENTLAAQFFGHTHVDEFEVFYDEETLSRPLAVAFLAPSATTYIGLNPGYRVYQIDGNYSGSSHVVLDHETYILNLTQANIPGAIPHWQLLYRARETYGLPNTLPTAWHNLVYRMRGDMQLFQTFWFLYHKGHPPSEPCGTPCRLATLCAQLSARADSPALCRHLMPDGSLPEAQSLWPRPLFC
UniProt P35869, whole entry, looked up: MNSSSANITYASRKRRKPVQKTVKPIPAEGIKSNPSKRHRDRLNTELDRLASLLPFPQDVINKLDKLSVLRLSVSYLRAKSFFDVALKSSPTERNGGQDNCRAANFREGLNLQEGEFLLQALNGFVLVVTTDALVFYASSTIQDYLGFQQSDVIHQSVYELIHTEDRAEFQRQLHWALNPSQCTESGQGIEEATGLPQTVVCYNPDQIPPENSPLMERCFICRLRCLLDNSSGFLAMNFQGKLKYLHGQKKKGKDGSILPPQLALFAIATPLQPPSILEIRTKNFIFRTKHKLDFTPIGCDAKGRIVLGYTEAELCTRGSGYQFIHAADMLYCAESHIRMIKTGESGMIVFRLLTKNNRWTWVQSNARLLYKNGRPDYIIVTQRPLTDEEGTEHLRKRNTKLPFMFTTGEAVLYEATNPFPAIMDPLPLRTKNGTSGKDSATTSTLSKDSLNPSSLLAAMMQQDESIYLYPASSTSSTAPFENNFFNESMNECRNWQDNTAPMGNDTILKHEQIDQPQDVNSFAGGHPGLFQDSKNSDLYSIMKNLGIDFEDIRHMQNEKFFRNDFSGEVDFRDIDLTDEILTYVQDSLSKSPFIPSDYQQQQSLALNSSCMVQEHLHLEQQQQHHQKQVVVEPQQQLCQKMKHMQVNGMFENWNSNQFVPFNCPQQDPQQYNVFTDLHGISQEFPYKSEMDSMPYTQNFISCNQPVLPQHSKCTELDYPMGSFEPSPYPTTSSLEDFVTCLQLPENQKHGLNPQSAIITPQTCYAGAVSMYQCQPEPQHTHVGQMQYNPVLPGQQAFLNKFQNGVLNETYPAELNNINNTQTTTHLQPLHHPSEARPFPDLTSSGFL
UniProt Q8T632, 1-509: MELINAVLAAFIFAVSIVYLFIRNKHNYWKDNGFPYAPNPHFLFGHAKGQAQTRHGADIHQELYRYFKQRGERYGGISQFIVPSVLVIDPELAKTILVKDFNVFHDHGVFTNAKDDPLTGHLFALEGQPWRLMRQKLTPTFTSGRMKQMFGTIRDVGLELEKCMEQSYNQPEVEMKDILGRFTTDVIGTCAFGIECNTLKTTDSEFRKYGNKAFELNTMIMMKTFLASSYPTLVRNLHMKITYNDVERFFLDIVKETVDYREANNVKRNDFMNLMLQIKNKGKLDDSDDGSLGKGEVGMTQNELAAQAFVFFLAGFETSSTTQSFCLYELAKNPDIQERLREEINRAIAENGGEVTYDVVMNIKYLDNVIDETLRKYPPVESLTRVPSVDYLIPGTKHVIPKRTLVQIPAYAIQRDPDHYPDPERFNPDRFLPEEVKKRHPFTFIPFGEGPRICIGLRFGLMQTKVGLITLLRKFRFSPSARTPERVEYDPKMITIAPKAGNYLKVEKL
UniProt Q86QH4, 1-128 partner: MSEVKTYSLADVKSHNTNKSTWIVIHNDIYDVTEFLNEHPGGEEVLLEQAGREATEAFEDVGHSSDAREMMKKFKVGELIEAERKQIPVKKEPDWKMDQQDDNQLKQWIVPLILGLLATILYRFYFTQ

Substance | target | assay | system | setting | how to read | endpoint | value
U-69593 | OPRK1 | agonist, high content imaging | U2OS expressing human KOR | 10 µM | baseline: reference agonist | β-arrestin2 recruitment | 100%
CCCC(=O)SCC[N+](C)(C)C | Butyrylcholinesterase | substrate | – | pH 8.0, 22 °C | – | Km | 230 ± 40 µM
C[S+](CC[C@H](N)C(=O)O)C[C@H]1O[C@@H](n2cnc3c(N)ncnc32)[C@H](O)[C@@H]1O (some centres unmarked) | Adenosylmethionine-8-amino-7-oxononanoate aminotransferase (Mycobacterium tuberculosis, UniProt P9WQ81) | first half-reaction, substrate, PMP formation by absorbance | – | pH 8.5, room temperature, together with: 100 µM PLP | – | Km | 450 ± 200 µM
CCC(=O)SCC[N+](C)(C)C | Cholinesterase (BCHE, Homo sapiens, UniProt P06276) | substrate | – | pH 8.0, 22 °C | – | Km | 17 ± 6 µM
O=c1[nH]c(CC2CCCCC2)cc(O)c1-c1ccccc1 | inhA | thermal shift | – | together with: NADH ternary complex | – | melting temperature | 57.8 °C
CO[C@]12CC[C@@]3(C[C@@H]1[C@@](C)(O)c1ccncc1)[C@H]1Cc4ccc(O)c5c4[C@@]3(CCN1CC1CC1)[C@H]2O5 | Oprm1 (Rattus norvegicus, UniProt P33535) | G protein activation, agonist | – | 10 µM | baseline: DAMGO | stimulation | 1 ± 3%
CCCCOP(=O)(OCCCC)OCCCC | PPARG (Homo sapiens, UniProt P37231) | reporter gene, agonist | HEK293 | – | baseline: rosiglitazone maximum | Emax | 23%
CNC(=O)Oc1ccc2c(c1)[C@]1(C)CCN(C)[C@@H]1N2C | Ace (Anopheles gambiae, UniProt Q869C3) | enzyme inhibition, inhibitor | – | – | – | k2 | 3.02 ± 0.21 min⁻¹
Cc1csc(CCCNCc2cc(=O)c3cc(F)ccc3[nH]2)n1 | DRD2 (Homo sapiens, UniProt P14416) | – | – | 10 µM | – | binding | inactive
CC(C)[C@H]1CC[C@@H](N2CCC(n3c(CO)cc4ccccc43)CC2)CC1 | DRD4 (Homo sapiens, UniProt P21917) | radioligand binding | – | 10 µM | – | inhibition | 86%
CC(=O)SCC[N+](C)(C)C | Butyrylcholinesterase | substrate | – | – | – | substrate inhibition constant (Kss) | 336 ± 167 mM
Nc1ccc(O)c(CN(C2CCCCC2)C2CCCCC2)c1 | ACHE | enzyme activity, inhibitor | – | 1000 µM | – | inhibition | 9%
naltrexamine Alexa 594 | Oprm1 (Mus musculus, UniProt P42866) | receptor binding, live-cell binding kinetics | – | 300 nM, 90 s, together with: Met-enkephalin 30 µM for 2 h | baseline: no pretreatment | unbinding rate | no effect
CO[C@]12CC[C@@]3(C[C@@H]1[C@](C)(O)c1ccccc1C)[C@H]1Cc4ccc(O)c5c4[C@@]3(CCN1CC1CC1)[C@H]2O5 | OPRK1 | G-protein activation, agonist | – | 10 µM | baseline: U-69593 | stimulation | 90 ± 3%
CN(C(=O)Cc1ccc(Cl)c(Cl)c1)C1CCC2(CCCO2)CC1N1CCCC1 (centres unmarked) | OPRK1 | agonist | – | human receptor | baseline: larger over smaller RAi, vs dynorphin A | bias factor | 1.8
CO[C@]12CC[C@@]3(C[C@@H]1[C@@](C)(O)C(C)(C)C)[C@H]1Cc4c(Cl)cc(O)c5c4[C@@]3(CCN1CC1CC1)[C@H]2O5 | OPRL1 | antagonist | CHO | concentration not given | – | antagonist activity | inhibited
CO[C@]12CC[C@@]3(C[C@@H]1[C@@](C)(O)c1ccccn1)[C@H]1Cc4ccc(O)c5c4[C@@]3(CCN1CC1CC1)[C@H]2O5 | Oprm1 (Rattus norvegicus, UniProt P33535) | G protein activation, agonist | – | 10 µM | baseline: DAMGO | stimulation | 1 ± 3%
methoxymethyl salvinorin B | Oprk1 | receptor internalization, agonist, on-cell western | – | mouse receptor | baseline: control | Emax | 40 ± 1.6%
CC[C@H](C)[C@@H]1NC(=O)[C@H](CCC(=O)O)NC(=O)[C@@H]2CCCN2C(=O)[C@H](Cc2c[nH]cn2)NC(=O)[C@H](CC(N)=O)NC(=O)[C@H](CC(C)C)NC(=O)[C@H](Cc2c[nH]cn2)NC(=O)[C@@H]2CSSC[C@H](NC(=O)CN)C(=O)N[C@@H](CSSC[C@@H](C(N)=O)NC1=O)C(=O)N[C@@H](CO)C(=O)N[C@@H](Cc1c[nH]cn1)C(=O)N1CCC[C@H]1C(=O)N[C@@H](C)C(=O)N2 | Neuronal acetylcholine receptor; alpha3/beta2 | – | – | – | baseline: IC50 α6/α3β2β3 over α3β2 | selectivity ratio | 3

Substance | target | assay | system | setting | how to read | endpoint | value
CO[C@]12CC[C@@]3(C[C@@H]1[C@](C)(O)c1ccc(Cl)cc1)[C@H]1Cc4ccc(O)c5c4[C@@]3(CCN1CC1CC1)[C@H]2O5 | OPRK1 | G-protein activation, agonist | – | 10 µM | baseline: U-69593 | stimulation | 17 ± 3%
nociceptin | OPRL1 | receptor internalization | – | 10 µM | – | onset time | 5 min
CCCc1nc2c(NP(=O)(OCC)OCC)nc3ccccc3c2s1 | TLR8 (Homo sapiens, UniProt Q9NR97) | reporter gene, agonist, measured: NF-κB | HEK-Blue TLR8 cells | inactive means above 100 µM | – | EC50 | inactive
O=C(O)c1ccccc1[As](=O)(O)O | SMPD1 (Homo sapiens, UniProt P17405) | enzyme activity | – | together with: sphingomyelin substrate | baseline: pH 6.5 over pH 5.0 | activity ratio | 5.6 fold
Nc1nc2c(ncn2[C@@H]2O[C@H](COP(=O)(O)OP(=O)(O)OP(=O)(O)O)[C@@H](O)[C@H]2O)c(=O)[nH]1 | Probable diguanylate cyclase DgcC (dgcC, Escherichia coli, UniProt P0AAP1) | diguanylate cyclase activity, substrate, radio-TLC | Escherichia coli, nanodiscs | pH 7.5, 30 °C | – | Km | 2 µM
CC(C)C[C@@H]1NC(=O)[C@H](CCC(=O)O)NC(=O)[C@@H]2CCCN2C(=O)[C@H](Cc2c[nH]cn2)NC(=O)[C@H](CCCCC(=O)O)NC(=O)[C@H](CC(C)C)NC(=O)[C@H](Cc2c[nH]cn2)NC(=O)[C@@H]2CSSC[C@H](NC(=O)CN)C(=O)N[C@@H](CSSC[C@@H](C(N)=O)NC1=O)C(=O)N[C@@H](CO)C(=O)N[C@@H](Cc1c[nH]cn1)C(=O)N1CCC[C@H]1C(=O)N[C@@H](C)C(=O)N2 | Nicotinic acetylcholine receptor alpha6/alpha3/beta4 (Rattus norvegicus, UniProt P04757+P12392+P43143) | – | – | – | baseline: IC50 α6/α3β4 over α3β2 | selectivity ratio | 114
CN(C)Cc1cc(N)ccc1O | ACHE | enzyme activity, inhibitor | – | 1000 µM | – | inhibition | 95%
CN(C(=O)Cc1ccc(Cl)c(Cl)c1)[C@H](CN1CCCC1)c1ccccc1 | OPRK1 | G protein activation, agonist | – | concentration not given | baseline: dynorphin A | log intrinsic relative activity | 1.46 ± 0.1
CO[C@]12CC[C@@]3(C[C@@H]1[C@](C)(O)c1ccsc1)[C@H]1Cc4ccc(O)c5c4[C@@]3(CCN1CC1CC1)[C@H]2O5 | Oprm1 (Rattus norvegicus, UniProt P33535) | G protein activation, agonist | – | 10 µM | baseline: DAMGO | stimulation | 3 ± 2%
Cc1cccc2c1ccc1cc(C(C)C)ccc12 | AHR (Homo sapiens, UniProt P35869) | reporter gene, agonist | Huh7 | 30 µM, together with: 0.125 mg/mL inactivated microsomes | baseline: MeBIO 0.1 µM | fold change | 25.6 and 28.5 and 26.8 and 26.2
CCOc1ccc2c(c1)Oc1cc(OCC)ccc1C21OC(=O)c2ccccc21 | cyp6p3 (Anopheles gambiae, UniProt Q8T632) | substrate | – | single plasmid expression | – | Km | 0.7 ± 0.1 µM
CN(C(=O)Cc1ccc(Cl)c(Cl)c1)[C@H]1CC[C@@]2(CCCO2)C[C@@H]1N1CCCC1 | DNA polymerase theta, ATPase domain (POLQ, Homo sapiens, UniProt O75417) | enzyme activity, inhibitor | – | 77 µM | – | remaining activity | 100%
CO[C@]12CC[C@@]3(C[C@@H]1[C@](C)(O)c1cccc(Cl)c1)[C@H]1Cc4ccc(O)c5c4[C@@]3(CCN1CC1CC1)[C@H]2O5 | Oprm1 (Rattus norvegicus, UniProt P33535) | G protein activation, agonist | – | 10 µM | baseline: DAMGO | stimulation | 14 ± 4%
CC(C)C[C@@H]1NC(=O)[C@H](CCC(=O)O)NC(=O)[C@@H]2CCCN2C(=O)[C@H](Cc2c[nH]cn2)NC(=O)[C@H](CC(N)=O)NC(=O)[C@H](CC(C)C)NC(=O)[C@H](Cc2c[nH]cn2)NC(=O)[C@@H]2CSSC[C@H](NC(=O)CN)C(=O)N[C@@H](CSSC[C@@H](C(N)=O)NC1=O)C(=O)N[C@@H](CO)C(=O)N[C@@H](Cc1c[nH]cn1)C(=O)N1CCC[C@H]1C(=O)N[C@@H](C)C(=O)N2 | Neuronal acetylcholine receptor; alpha3/beta2 | – | – | – | baseline: IC50 α6/α3β2β3 over α3β2 | selectivity ratio | 3
CN(C(=O)Cc1cccc2occc12)[C@H]1CC[C@@]2(CCCO2)C[C@@H]1N1CCCC1 | Oprk1 | receptor internalization, agonist, on-cell western | – | mouse receptor | baseline: control | Emax | 44.8 ± 1.2%
CC(C[N+](C)(C)C)OC(N)=O (centres unmarked) | Muscarinic acetylcholine receptor (Xenopus laevis, UniProt A0A8J0U760) | binding, [3H]QNB competition | Xenopus laevis heart homogenate | – | – | Hill coefficient | 0.53
ethoxymethyl salvinorin B | OPRK1 | receptor internalization, agonist | – | concentration not given | baseline: dynorphin A | log intrinsic relative activity | 0.68 ± 0.16
CC1(C)CCC(Cc2cc(O)c(-c3ccccc3)c(=O)[nH]2)CC1 | inhA | thermal shift | – | together with: NAD+ ternary complex | – | melting temperature | 55 °C
Cc1c(-c2ccc(-c3ccc(OC(F)(F)F)cc3)nc2)[nH]c2ccccc2c1=O | cydA, with CydB subunit (Mycobacterium tuberculosis, UniProt L7N662) | inhibitor | – | 110 nM | – | specific activity | 6 ± 0.5 µmol/min/mg

Some of these lines once more:
Substance | target | assay | system | setting | how to read | endpoint | value
CCCc1nc2c(NP(=O)(OCC)OCC)nc3ccccc3c2s1 | TLR8 (Homo sapiens, UniProt Q9NR97) | reporter gene, agonist, measured: NF-κB | HEK-Blue TLR8 cells | inactive means above 100 µM | – | EC50 | inactive
O=C(O)c1ccccc1[As](=O)(O)O | SMPD1 (Homo sapiens, UniProt P17405) | enzyme activity | – | together with: sphingomyelin substrate | baseline: pH 6.5 over pH 5.0 | activity ratio | 5.6 fold
Nc1nc2c(ncn2[C@@H]2O[C@H](COP(=O)(O)OP(=O)(O)OP(=O)(O)O)[C@@H](O)[C@H]2O)c(=O)[nH]1 | Probable diguanylate cyclase DgcC (dgcC, Escherichia coli, UniProt P0AAP1) | diguanylate cyclase activity, substrate, radio-TLC | Escherichia coli, nanodiscs | pH 7.5, 30 °C | – | Km | 2 µM
CC(C)C[C@@H]1NC(=O)[C@H](CCC(=O)O)NC(=O)[C@@H]2CCCN2C(=O)[C@H](Cc2c[nH]cn2)NC(=O)[C@H](CCCCC(=O)O)NC(=O)[C@H](CC(C)C)NC(=O)[C@H](Cc2c[nH]cn2)NC(=O)[C@@H]2CSSC[C@H](NC(=O)CN)C(=O)N[C@@H](CSSC[C@@H](C(N)=O)NC1=O)C(=O)N[C@@H](CO)C(=O)N[C@@H](Cc1c[nH]cn1)C(=O)N1CCC[C@H]1C(=O)N[C@@H](C)C(=O)N2 | Nicotinic acetylcholine receptor alpha6/alpha3/beta4 (Rattus norvegicus, UniProt P04757+P12392+P43143) | – | – | – | baseline: IC50 α6/α3β4 over α3β2 | selectivity ratio | 114
CN(C)Cc1cc(N)ccc1O | ACHE | enzyme activity, inhibitor | – | 1000 µM | – | inhibition | 95%
